Results of several laboratories.
Every numbered part comes from another study and shows a few of its results, in no order.

Set 1
Target: RNA binding protein fox-1 homolog 2, RRM domain, GST-SBP tag (RBFOX2, Homo sapiens, UniProt O43251-10, residues 100-194)
Method: RNA Bind-n-Seq
Form: RNA
Medium: in vitro
Tested at: 365 nM
Notes: natural RNA segment, single round, ends assumed
Reference: no-protein control
Reading: higher = stronger binding
Residues (chain): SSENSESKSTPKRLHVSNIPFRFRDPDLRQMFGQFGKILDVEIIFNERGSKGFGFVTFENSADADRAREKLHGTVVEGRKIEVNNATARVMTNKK
Sequence | RBNS enrichment (R)
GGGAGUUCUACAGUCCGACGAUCUACUUGUUUCCCACCCCAGGUUCCUCCAGGCCAAGUCAUGGGGUGAUGAGGAGUUGGGGCCCUGUCUGUCCUAGGCCUGGAGAGUGCCUGUCUGGGAAAAGGUCACUGGAUGGAAUUCUCGGGUGCCAA | 0.632
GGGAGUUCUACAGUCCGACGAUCCUGAGGCUGACUUCAGCUCCUGGACACCCUUAGAAUUCCUAGUUGGAACUUUCCAUGACUGGAUCACAGGGAAAAACCGACCGAGCUCAGGAAGCCUAAUCCAGGUGGUAUGGAAUUCUCGGGUGCCAA | 0.254
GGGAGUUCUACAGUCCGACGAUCACCAGGAGCAGGAGCCAAGCAUGUCCAGUCCUCUUCUGAGACCUCUGAGGUCUCAGAAGAGAAACUUGACAGUGUCUGGUCCAUGGGGCUGCUCAGAAAAGCGCUGCUCUUGGAAUUCUCGGGUGCCAA | 0.462
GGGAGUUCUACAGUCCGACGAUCCUUUGGCAAUGCAAAAUGACUCCUGACUGUUCCAAAUACUGAAAAGAAGUCUGCCUCUGAGUUACAGCUCUUUCUCAACAAGUACAGAGUUUGAGGCUUGCAGUUGCAACUGGAAUUCUCGGGUGCCAA | 0.646
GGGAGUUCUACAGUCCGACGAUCAAGCCUAGGCCAGCCAGAUACCACCAUUUGCUGCUUCAGGCUUGCCUGCCUGUUGUGAUAACCAGCUCUUAGGUAUUUCCUUUCCCUGAGGCUUUCCAUUUAACAUGGAAUGGAAUUCUCGGGUGCCAA | 0.26
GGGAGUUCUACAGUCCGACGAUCCACUGCUUGGGCUGCUUGUAGCGGAAUCCUUGGAAAACAGUUGUUGAGGGCCUUGACAGAUCGGGCCAGCGCUGACCUCUGUGCUCUGCUUCCUUUCUUUAUCCCUGUUUUGGAAUUCUCGGGUGCCAA | 0.554
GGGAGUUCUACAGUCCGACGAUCAUGUCUACUUGUAUUGAUCCUUUGGGUCUCCUGGCCCAUUGCUAGGCACUGUUUGUGUGUUAUUAAUGUGUAAUUGGGUGAGAACUGUGUCCCUGAGCAGGAGGGGCUGUUGGAAUUCUCGGGUGCCAA | 1.23
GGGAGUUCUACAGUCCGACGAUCACUGAUCUUUUAAUGGAAUUUCUUUGAAAUCAAAUCCAUAACUGAUUCUAUUAAGAUACAAUAGCUAAAGUUGGGGAAUAACUUCAGGUAAAAACUGCAAGUCUUGAAGAUGGAAUUCUCGGGUGCCAA | 0.292
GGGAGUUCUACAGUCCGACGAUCAUUGAAAGCUUCCAUGUUUAAUGUUAUCCUCUUGCUAUAUAAAUAAAGCAAAUAUAUUUAGGCCAGGGUCUCACUGAGGGGGAGCUGUCUUGUCAUCUUUUAGAGUAAACUGGAAUUCUCGGGUGCCAA | 0.439
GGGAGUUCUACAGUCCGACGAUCACUCAUGGUCAAUACCCAGCCAGUCUUCUUACAGGGACUUGAGAGGCUCAGGCUACUAUGACCAAUAGAAGUGAAAGUCUUGGUCAUAAUUUGGGGUGACAUGCUGUCAAUGGAAUUCUCGGGUGCCAA | 0.834
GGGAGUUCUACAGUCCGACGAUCGUAUUCAAGAAUGCAUGGACCAGUAUAGGUUCGCUCUUGUUUCUACACCUCCAGAAUGAUAGCUGACAUUUUUGUUUUGUUUUUCAGCAGUUGCCAUGAGCCAAACCCUAUGGAAUUCUCGGGUGCCAA | 3.21
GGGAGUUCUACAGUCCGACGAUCAUGGCUCAGAGGUGAUUCGGGCAGCCAGGGACAGGAGCCACCCUCCCCAGGCCCAACUCUGCUAGCUUCCCAGACCACCCCCAUCGAGUGCGGAGAGAGUGGGAGUGCUCUGGAAUUCUCGGGUGCCAA | 1.14

Set 2
Target: Prothrombin, mature alpha-thrombin (F2, Homo sapiens, UniProt P00734)
Method: aptamer microarray, sandwich
Form: DNA with 2'F-ANA
Medium: in vitro
Tested at: 200 nM
Notes: whole 15-mer aptamer, many near background
Together with: Cy3 exosite-II aptamer, 400 nM
Reading: higher = stronger binding
Sequence: GGTTGGTGTGGTTGG
Modification | mean fluorescence intensity
2'F-ANA at 8 9 10 15 | 158 a.u.
2'F-ANA at 1 3 4 8 10 11 13 | 53.2 a.u.
2'F-ANA at 1 4 5 6 7 8 10 13 14 15 | 45.6 a.u.
2'F-ANA at 1 2 3 4 7 9 11 12 13 14 15 | 60.1 a.u.
2'F-ANA at 1 2 5 11 12 13 | 121 a.u.
2'F-ANA at 3 4 6 7 8 12 13 | 1520 a.u.
2'F-ANA at 1 3 4 5 6 7 9 13 15 | 53.2 a.u.
2'F-ANA at 1 7 14 | 56.4 a.u.
2'F-ANA at 2 4 10 11 12 | 127 a.u.
2'F-ANA at 3 4 5 7 10 11 13 14 15 | 50.7 a.u.
2'F-ANA at 2 4 7 8 9 11 12 13 | 374 a.u.
2'F-ANA at 3 5 6 7 8 9 12 13 14 15 | 60.8 a.u.
2'F-ANA at 1 2 3 6 10 12 13 15 | 133 a.u.
2'F-ANA at 1 2 3 4 6 8 9 10 13 15 | 53.9 a.u.
2'F-ANA at 4 5 6 12 14 | 42.3 a.u.
2'F-ANA at 2 3 5 7 8 10 13 14 | 47.9 a.u.
2'F-ANA at 3 6 7 8 11 12 13 15 | 1130 a.u.
2'F-ANA at 4 12 13 14 15 | 118 a.u.

Set 3
Target: Interferon regulatory factor 5, full length, phosphomimetic (IRF5, Homo sapiens, UniProt Q13568-2, residues 1-514, S451D/S453D/S456D/S462D)
Method: protein-binding microarray
Form: double-stranded DNA, one strand shown
Medium: in vitro
Tested at: 940 nM top
Notes: 60-bp whole probe
Together with: salmon DNA 0.4 mg/ml
Reference: random background probes
Reading: higher = stronger binding
All sequences stand within: GCCTAGCAC … GTCTTGATTCGCTTGACGCTGCTG
Sequence | fitted relative affinity
CACGATCTCAGTTTCGAGACGTGCTAG | 3.79 z-score
GTAGGACTGCTACTGCTTTAGTGCTAG | -0.681 z-score
TTAGATATCGGGACAGGATTAGTGCTA | 0.353 z-score
TCACTTGTCCCTCCGGGACTGTGCTAG | 0.131 z-score
TTCACTTTCTTTAACATATTGTGCTAG | 2.42 z-score
GATGATTTCAGTCTCGAGACGTGCTAG | 1.63 z-score
GACGAACTGGGGTATCGAGAAGTGCTA | 0.887 z-score
GACGATTTCGGGTATGGAGACGTGCTA | 0.732 z-score
GACGGTCTCGGTTTCGGGCCGTGCTAG | 6.18 z-score
TTAGGTTTGGGGTATCGGTTAGTGCTA | 3.14 z-score
TTAGATATCAGACTGAATTAGTGCTAG | -0.248 z-score
TCAAGTTTTACTTTCTAACTGTGCTAG | 1.07 z-score
TTAGGTTTCGGGTGTCGGTTAGTGCTA | 10.8 z-score
TTAGGTTTCTTTTTCCTTTAGTGCTAG | 3.66 z-score
TCAGTTTTCAGTCCTGGACTGTGCTAG | 1.16 z-score
TCATTATTAAAACTTCATACTGTGCTA | 0.98 z-score
GACGGTTTCGGGTTTCGGCACGTGCTA | 8.49 z-score
GACGGGTTCCTTATCCTGACGTGCTAG | 0.148 z-score
GAACATTTCAATTAGAAAAAGTGCTAG | -0.159 z-score
TCATTTTTCTTTAAAAGACTGTGCTAG | 0.35 z-score
GACGGTCTCCTGATCCTGACGTGCTAG | -0.206 z-score
TTCGATCTCAGACTGGATTAGTGCTAG | -0.299 z-score
TTAGATTCCAGTTTCGTTTAGTGCTAG | 6.39 z-score
TTAGGTCGCGGTCTCGGTTAGTGCTAG | 1.99 z-score
CTGCCTGGCCAAGCCCAGATGTGCTAG | -0.00282 z-score

Set 4
Target: Sal-like protein 4, full length isoform B (SALL4, Homo sapiens, UniProt Q9UJQ4-2, residues 1-616)
Method: universal PBM
Form: double-stranded DNA, one strand shown
Medium: in vitro
Tested at: not given
Notes: 8-mer, flanks averaged, mean of replicates
Reading: higher = stronger binding
Target sequence (chain): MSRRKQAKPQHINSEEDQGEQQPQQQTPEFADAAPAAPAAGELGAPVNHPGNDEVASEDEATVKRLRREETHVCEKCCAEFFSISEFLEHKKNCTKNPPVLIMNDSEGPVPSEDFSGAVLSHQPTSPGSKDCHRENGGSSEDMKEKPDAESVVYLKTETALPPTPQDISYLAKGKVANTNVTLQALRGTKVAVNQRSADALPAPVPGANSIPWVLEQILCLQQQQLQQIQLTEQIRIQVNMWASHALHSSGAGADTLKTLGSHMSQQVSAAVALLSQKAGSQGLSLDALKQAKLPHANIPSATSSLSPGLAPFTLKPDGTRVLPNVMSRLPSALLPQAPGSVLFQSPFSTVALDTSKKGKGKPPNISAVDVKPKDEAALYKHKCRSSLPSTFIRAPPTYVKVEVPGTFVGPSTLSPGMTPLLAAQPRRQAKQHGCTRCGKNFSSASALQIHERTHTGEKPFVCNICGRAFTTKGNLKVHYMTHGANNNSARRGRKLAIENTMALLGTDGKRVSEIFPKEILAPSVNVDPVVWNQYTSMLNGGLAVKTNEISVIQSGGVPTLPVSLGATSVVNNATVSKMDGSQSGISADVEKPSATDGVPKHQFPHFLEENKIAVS
Sequence | E-score
GGTTGAAA | 0.0634
ATTAACTA | 0.28
AACTAATG | 0.239
TCCACAAA | 0.149
AGACAAAA | 0.115
CGCGGCCC | -0.403
CAAACAAC | 0.113
GAGACGCA | -0.184
AGACCATA | 0.206
TATACCGA | 0.166
GAACGATC | -0.169
AATCTCCT | 0.0425
GGCAATTA | 0.192
AGGAGGTC | -0.0992
AGCCAGCT | -0.201
GTTAAAAC | 0.113
AGGGTTAA | 0.0709

Set 5
Target: Histone acetyltransferase KAT6A, both winged helices, GST fusion (KAT6A, Homo sapiens, UniProt Q92794, residues 1-181)
Method: protein binding microarray
Form: double-stranded DNA, one strand shown
Medium: in vitro
Tested at: not given
Notes: 8-mer, flanks averaged, mean of 2 arrays, mostly near background
Reference: not given
Reading: higher = stronger binding
Residues (chain): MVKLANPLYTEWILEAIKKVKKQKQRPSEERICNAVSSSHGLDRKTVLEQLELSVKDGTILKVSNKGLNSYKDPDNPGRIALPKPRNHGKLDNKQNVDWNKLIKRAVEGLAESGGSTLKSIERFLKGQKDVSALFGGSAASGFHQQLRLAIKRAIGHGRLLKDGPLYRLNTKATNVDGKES
Sequence | E-score
AGCTGAGA | -0.155
ACAAACCA | -0.333
CTAGACAC | 0.0016
TCCCCGCA | 0.185
CATTCCGG | 0.113
CCTTGTGC | -0.0791
GAAAGCCA | -0.278
GTCTTTAA | -0.167
CTGTGTCC | -0.0435
AACCCGGA | 0.106
ACCCGGGC | 0.256
AATGCTTA | -0.162
ACAGTAAG | -0.13
CCAGTGTC | 0.0175
ATGAGCAG | -0.157
CACGTCCA | -0.0664
CCATCGCA | 0.0685
AGATGGTG | -0.217
AAGGTCAC | -0.0443
AAATATCG | -0.0145
ATGATGCC | -0.0175
AACGAATG | -0.0977

Excerpt of the above (set 3):
Sequence | fitted relative affinity
TCATTTTTCTTTAAAAGACTGTGCTAG | 0.35 z-score
TTAGGTTTGGGGTATCGGTTAGTGCTA | 3.14 z-score
TCACTTGTCCCTCCGGGACTGTGCTAG | 0.131 z-score
TTAGGTCGCGGTCTCGGTTAGTGCTAG | 1.99 z-score
TTAGGTTTCGGGTGTCGGTTAGTGCTA | 10.8 z-score
TTCACTTTCTTTAACATATTGTGCTAG | 2.42 z-score
GACGGTCTCGGTTTCGGGCCGTGCTAG | 6.18 z-score
GACGAACTGGGGTATCGAGAAGTGCTA | 0.887 z-score
GAACATTTCAATTAGAAAAAGTGCTAG | -0.159 z-score
TCATTATTAAAACTTCATACTGTGCTA | 0.98 z-score
GACGGGTTCCTTATCCTGACGTGCTAG | 0.148 z-score
